Assay results collected from several papers.
A part holds a random share of what one study measured. Substitutions count along the parent as printed.

Study 1 — method: protein binding microarray; form: double-stranded DNA, one strand shown; sample: in vitro; concentration: not given; reference: not given; direction: higher = stronger binding
Target: Histone acetyltransferase KAT6A, winged helix 1, GST fusion (KAT6A, Homo sapiens, UniProt Q92794, residues 1-85)
Setting: 8-mer, flanks averaged, mean of 2 arrays, mostly near background
Target sequence (chain): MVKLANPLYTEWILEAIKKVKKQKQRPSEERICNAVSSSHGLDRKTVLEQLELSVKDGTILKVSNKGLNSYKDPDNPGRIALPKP
With `GTACGGGA` the E-score was 0.322.
`AACCTTCA` gave an E-score of -0.259.
With `GTGGGGGA` the E-score was -0.0822.

Study 2 — method: RNA Bind-n-Seq; form: RNA; sample: in vitro; concentration: 100 nM; reference: input RNA pool; direction: higher = stronger binding
Target: RING finger protein unkempt homolog, zinc fingers 1-6, SBP tag (UNK, Homo sapiens, UniProt Q9C0B0, residues 30-357)
UniProt Q9C0B0, sequence (30-357, looked up): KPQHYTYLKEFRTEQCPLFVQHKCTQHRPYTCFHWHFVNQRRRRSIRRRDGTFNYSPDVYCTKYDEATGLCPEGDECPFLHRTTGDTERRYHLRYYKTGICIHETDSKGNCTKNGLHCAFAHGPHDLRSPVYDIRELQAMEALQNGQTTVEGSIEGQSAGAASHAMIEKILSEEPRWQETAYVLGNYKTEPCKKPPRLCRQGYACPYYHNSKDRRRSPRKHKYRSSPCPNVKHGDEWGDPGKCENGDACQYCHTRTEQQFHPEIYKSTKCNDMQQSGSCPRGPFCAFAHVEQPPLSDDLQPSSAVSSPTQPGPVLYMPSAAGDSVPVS
Setting: RNA with constant flanks, vertebrate orthologous sites, ends assumed
`GGGAGUUCUACAGUCCGACGAUCUGUAGAGAAAAAUUUUUCAUUGACCCUCCCCCACAUUGUGUAAUUCCAUAGAAAUUUAUUUGGAAUCUUAAUUUUUCUAAUUCAUACUUGCUGCAAUAGUCAUUUUAAGGCCAUAAUGAACAACAGAGGAUUGAGCAUCA` gave a bound/input enrichment of 0.47 ratio.
For `GGGAGUUCUACAGUCCGACGAUCGGACUAAUUUGAUUCUCUGUCUCUUUUUUCCCCAUCCUAAUUUCAAGAGCCCUUUUCUUUUAGGCGUAUGUAGUAAUAGCUGAAAGAUUUAAUUUGGGCAACUUUGAUUCUUAAAAAAAGCAACAGAGGAUUGAGCAUCA`, the bound/input enrichment was 0.238 ratio.
For `GGGAGUUCUACAGUCCGACGAUCUGUUAACUCUUGCAGUCUUAGAUGUUAUAAAACUAUAUAUGUCUGAAUUGUAAGAGUUGUUAACACAGUUUUUUUUUUUAAGCACUUGUUUUGGGUACAAAAUUUUAUAAACACAUUUAACAACAGAGGAUUGAGCAUCA`, the bound/input enrichment was 0.24 ratio.

Other studies, line by line
P1: ORC1 docking peptide (human); PRARKRLELGNLG; partner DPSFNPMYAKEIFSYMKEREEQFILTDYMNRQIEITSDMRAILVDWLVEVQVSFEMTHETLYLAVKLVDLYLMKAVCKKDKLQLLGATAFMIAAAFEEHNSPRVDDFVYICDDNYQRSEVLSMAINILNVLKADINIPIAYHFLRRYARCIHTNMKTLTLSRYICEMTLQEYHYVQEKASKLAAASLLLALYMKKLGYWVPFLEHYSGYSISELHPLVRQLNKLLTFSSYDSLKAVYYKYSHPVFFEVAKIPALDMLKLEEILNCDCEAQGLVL
Under “normalised enrichment score”, `P1 R4E` is recorded as 0.394 (CCNB3, cyclin fold, Cln2 fusion (human); yeast growth competition, sequencing; yeast; weak parent motif; reference: not given, higher = stronger binding).
`PhoQ, residues 284 288 289 292 302 303 ALVSVA` has a fold induction of 21.6 (PhoP, residues 12 14 15 18 19 VHSCL (Escherichia coli, UniProt P23836); Sort-seq, measured: YFP reporter; E. coli; PhoQ-PhoP variant library, added: 10 µM Mg2+; reference: high Mg2+ state, higher = stronger signaling).
